# Measurements gathered from unrelated publications.
# Compare with care: the assays were run in different laboratories. ± gives the spread as reported.
# GPR84: G-protein coupled receptor 84 (GPR84, Homo sapiens, UniProt Q9NQS5)
# Chain of UniProt Q9NQS5 (whole entry, looked up): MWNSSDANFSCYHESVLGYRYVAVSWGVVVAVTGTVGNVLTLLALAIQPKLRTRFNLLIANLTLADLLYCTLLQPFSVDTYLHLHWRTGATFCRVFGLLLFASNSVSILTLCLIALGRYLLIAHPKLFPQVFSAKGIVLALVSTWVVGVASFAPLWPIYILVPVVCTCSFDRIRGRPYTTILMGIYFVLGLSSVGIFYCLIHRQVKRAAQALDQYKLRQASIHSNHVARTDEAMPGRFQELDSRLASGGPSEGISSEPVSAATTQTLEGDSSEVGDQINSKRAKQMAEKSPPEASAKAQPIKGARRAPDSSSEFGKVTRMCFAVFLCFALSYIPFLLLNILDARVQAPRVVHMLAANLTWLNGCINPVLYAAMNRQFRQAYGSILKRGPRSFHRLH
# ESR2: Estrogen receptor beta (ESR2, Homo sapiens, UniProt Q92731)
# Chain of UniProt Q92731 (whole entry, looked up): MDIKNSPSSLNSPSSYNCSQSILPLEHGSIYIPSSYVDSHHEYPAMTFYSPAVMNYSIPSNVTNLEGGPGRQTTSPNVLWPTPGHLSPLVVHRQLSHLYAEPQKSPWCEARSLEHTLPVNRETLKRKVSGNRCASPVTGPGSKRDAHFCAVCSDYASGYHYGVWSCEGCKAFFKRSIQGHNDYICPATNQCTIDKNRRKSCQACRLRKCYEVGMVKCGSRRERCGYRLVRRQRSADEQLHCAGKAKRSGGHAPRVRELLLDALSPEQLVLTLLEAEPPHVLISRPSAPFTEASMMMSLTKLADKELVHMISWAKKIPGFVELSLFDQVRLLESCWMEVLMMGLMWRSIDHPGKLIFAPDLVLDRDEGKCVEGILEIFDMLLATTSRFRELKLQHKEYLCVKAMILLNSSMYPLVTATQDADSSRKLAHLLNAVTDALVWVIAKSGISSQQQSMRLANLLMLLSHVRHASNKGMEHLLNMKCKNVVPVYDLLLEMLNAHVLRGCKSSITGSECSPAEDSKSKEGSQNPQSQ
# VCP: Transitional endoplasmic reticulum ATPase (VCP, Homo sapiens, UniProt P55072)
# Chain of UniProt P55072 (whole entry, looked up): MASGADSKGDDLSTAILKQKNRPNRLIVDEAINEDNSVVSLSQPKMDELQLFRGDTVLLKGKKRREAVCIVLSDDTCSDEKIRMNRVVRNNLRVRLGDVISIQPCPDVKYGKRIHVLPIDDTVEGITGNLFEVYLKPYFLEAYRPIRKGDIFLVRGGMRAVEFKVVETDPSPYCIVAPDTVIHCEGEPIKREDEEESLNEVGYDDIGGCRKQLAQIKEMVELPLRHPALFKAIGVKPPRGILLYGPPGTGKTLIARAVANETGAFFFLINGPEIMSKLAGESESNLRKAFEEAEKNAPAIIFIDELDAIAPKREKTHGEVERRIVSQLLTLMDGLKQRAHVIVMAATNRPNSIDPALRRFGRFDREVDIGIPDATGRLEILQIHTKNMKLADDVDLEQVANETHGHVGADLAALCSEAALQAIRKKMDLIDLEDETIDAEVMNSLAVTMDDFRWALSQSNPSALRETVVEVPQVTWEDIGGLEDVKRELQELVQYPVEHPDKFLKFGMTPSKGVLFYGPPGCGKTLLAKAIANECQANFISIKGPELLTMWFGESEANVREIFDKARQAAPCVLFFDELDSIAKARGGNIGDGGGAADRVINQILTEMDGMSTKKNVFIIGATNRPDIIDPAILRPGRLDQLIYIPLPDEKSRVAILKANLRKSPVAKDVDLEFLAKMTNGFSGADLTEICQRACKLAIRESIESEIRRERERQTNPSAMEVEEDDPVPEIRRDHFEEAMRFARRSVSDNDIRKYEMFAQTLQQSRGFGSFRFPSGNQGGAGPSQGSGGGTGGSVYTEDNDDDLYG
# BRAP ZnF-UBD domain: BRCA1-associated protein, ZnF-UBD domain (BRAP, Homo sapiens, UniProt Q7Z569)
# Chain of UniProt Q7Z569 (whole entry, looked up): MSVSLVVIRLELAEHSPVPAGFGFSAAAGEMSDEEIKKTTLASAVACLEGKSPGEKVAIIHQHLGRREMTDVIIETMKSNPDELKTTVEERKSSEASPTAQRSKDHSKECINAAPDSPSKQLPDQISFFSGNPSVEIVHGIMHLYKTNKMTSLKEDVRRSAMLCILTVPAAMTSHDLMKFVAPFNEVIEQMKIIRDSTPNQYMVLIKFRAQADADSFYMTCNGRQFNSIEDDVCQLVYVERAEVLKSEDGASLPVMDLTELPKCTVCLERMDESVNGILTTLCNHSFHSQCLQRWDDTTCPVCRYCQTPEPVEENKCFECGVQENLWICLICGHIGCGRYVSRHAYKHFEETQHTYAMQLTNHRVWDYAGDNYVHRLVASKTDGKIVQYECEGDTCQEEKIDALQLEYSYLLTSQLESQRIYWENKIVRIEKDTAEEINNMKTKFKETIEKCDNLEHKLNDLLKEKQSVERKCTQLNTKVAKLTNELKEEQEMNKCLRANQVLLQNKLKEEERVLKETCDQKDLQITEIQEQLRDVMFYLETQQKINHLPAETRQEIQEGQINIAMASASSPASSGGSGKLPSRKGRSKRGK
# Chain of UniProt Q96GD4 (whole entry, looked up): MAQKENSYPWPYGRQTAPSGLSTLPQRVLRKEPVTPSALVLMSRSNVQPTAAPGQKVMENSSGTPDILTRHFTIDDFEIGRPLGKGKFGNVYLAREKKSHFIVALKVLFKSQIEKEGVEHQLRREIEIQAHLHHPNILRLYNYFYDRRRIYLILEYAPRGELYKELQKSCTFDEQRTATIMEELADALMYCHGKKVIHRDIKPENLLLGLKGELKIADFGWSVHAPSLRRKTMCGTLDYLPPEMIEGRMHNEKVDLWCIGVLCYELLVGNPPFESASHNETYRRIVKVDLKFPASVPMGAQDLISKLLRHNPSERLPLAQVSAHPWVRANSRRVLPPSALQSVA
# Chain of UniProt Q99523 (whole entry, looked up): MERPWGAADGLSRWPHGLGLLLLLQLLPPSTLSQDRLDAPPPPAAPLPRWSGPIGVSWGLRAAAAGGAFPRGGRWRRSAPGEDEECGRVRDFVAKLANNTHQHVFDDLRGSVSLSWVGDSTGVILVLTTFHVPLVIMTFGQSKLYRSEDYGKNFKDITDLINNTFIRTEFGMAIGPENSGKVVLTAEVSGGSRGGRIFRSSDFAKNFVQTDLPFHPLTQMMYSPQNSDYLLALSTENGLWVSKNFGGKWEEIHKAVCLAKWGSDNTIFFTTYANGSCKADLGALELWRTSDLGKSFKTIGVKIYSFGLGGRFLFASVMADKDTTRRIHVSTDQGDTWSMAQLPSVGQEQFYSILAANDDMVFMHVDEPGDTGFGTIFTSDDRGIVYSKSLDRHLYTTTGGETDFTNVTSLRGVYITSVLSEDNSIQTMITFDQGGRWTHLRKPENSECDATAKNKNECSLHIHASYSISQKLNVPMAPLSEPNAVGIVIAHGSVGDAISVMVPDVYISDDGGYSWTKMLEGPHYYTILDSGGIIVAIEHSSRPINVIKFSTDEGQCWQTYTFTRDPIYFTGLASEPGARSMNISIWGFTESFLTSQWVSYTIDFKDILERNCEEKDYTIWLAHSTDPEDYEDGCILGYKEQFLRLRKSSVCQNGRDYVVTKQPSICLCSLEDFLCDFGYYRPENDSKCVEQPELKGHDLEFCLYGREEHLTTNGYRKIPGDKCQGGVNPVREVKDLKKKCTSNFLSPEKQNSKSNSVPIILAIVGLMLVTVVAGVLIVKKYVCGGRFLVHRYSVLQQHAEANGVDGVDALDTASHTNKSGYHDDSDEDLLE
# Chain of UniProt P28335 (whole entry, looked up): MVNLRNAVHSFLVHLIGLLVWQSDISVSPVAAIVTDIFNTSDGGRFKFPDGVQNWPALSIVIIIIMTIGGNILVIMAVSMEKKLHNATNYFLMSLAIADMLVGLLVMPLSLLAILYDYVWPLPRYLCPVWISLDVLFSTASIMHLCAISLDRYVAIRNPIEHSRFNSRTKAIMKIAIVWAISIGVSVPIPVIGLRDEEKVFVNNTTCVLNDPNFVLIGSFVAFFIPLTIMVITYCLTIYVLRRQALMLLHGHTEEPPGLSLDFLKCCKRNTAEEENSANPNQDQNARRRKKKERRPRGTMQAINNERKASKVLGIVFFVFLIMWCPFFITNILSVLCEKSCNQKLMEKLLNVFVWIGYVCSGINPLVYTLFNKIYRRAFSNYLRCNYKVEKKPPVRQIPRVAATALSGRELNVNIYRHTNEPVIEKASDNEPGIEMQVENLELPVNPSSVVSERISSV
# Chain of UniProt P56524 (whole entry, looked up): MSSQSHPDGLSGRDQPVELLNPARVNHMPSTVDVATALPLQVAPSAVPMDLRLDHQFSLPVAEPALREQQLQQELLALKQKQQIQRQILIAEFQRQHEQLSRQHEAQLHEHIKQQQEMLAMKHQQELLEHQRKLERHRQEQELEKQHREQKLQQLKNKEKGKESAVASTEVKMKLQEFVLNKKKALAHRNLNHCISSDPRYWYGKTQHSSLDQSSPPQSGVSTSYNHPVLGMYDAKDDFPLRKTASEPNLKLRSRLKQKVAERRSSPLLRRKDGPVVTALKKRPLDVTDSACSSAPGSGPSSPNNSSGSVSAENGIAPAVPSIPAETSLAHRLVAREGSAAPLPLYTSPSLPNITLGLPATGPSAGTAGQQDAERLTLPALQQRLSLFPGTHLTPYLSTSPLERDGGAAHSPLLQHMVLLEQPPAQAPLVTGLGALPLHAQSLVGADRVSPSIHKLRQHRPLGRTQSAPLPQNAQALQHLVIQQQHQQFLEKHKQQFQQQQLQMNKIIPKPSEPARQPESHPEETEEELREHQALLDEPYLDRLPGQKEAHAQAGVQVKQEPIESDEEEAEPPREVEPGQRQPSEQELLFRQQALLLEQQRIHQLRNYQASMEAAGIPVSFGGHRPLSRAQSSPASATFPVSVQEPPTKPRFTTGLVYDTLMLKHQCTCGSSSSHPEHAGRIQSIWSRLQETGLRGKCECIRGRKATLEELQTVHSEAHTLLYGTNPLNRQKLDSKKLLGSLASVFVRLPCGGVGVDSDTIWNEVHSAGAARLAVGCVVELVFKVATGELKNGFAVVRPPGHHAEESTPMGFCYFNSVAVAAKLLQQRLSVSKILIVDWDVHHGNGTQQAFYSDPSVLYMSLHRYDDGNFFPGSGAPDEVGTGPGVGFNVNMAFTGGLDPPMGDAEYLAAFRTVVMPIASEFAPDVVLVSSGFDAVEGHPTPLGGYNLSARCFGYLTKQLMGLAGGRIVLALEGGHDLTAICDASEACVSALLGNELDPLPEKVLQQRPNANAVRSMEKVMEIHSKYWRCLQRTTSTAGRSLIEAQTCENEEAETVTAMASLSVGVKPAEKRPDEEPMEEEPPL
SMILES,target,assay,system,setting,endpoint,value
Oc1cc(NCCCCc2ccccc2)nc(O)n1,GPR84,agonist,,,EC50,0.129 µM
CCCN(CCCCOCCOCCOCCOCCOCC(=O)N[C@H](C(=O)N1C[C@H](O)C[C@H]1C(=O)NCc1ccc(-c2scnc2C)cc1)C(C)(C)C)C[C@@H](C)NC(=O)c1ccc(-c2noc(C(F)(F)F)n2)cc1,"Histone deacetylase 4 (HDAC4, Homo sapiens, UniProt P56524)","degrader, western blot",SH-SY5Y,without elacridar,DC50,0.358 µM
CCc1ccc(CCNc2cc(=O)[nH]c(=O)[nH]2)cc1,GPR84,"cAMP level, agonist",human cells,,EC50,0.00433 ± 0.00151 µM
CC[C@H](C)[C@H](NC(=O)[C@H](CS)NC(=O)[C@H](CCC(=O)O)NC(=O)[C@H](C)NC(=O)[C@@H](NC(=O)[C@@H](N)CCCNC(=N)N)[C@@H](C)CC)C(=O)N[C@@H](CC(C)C)C(=O)NCC(=O)N[C@@H](CCSC)C(=O)O,"HLA class I histocompatibility antigen, A alpha chain, allele A*01:01 (Homo sapiens, UniProt P04439)","binding, competitor, radioligand competition",,"two days, room temperature, HLA-A*01:01",IC50,> 40 µM
O=c1cc(NCCc2ccccc2Cl)[nH]c(=O)[nH]1,GPR84,agonist,,,EC50,1.32 ± 0.09 µM
COc1ccc(-c2cc(=O)c3c(O)cc(OC)cc3o2)cc1,ESR2,"array formation, agonist",GFP-ERβ PRL-HeLa,1 h,EC50,0.939 µM
COc1ccccc1Nc1nc(NCc2ccccc2)c2ccccc2n1,VCP,"enzyme activity, inhibitor",,,IC50,2.2 ± 0.9 µM
O=c1cc(-c2ccccc2)oc2cc(O[C@@H]3O[C@H](CO[C@@H]4O[C@H](CO)[C@@H](O)[C@H](O)[C@H]4O)[C@@H](O)[C@H](O)[C@H]3O)c(O)c(O)c12,ESR2,"array formation, agonist",GFP-ERβ PRL-HeLa,1 h,EC50,0.144 µM
COc1ccc(-c2nc(NCc3ccccc3)c3ccc(Cl)cc3n2)cc1,VCP,"enzyme activity, inhibitor",,,IC50,25 ± 11 µM
O=C(O)CCc1ccccc1OCc1ccccn1,BRAP ZnF-UBD domain,,,,Kd,483 µM
O=c1c(O)c(-c2cc(O)c(O)c(O)c2)oc2cc(O)cc(O)c12,ESR2,"array formation, agonist",GFP-ERβ PRL-HeLa,1 h,EC50,0.194 µM
O=c1cc(NCCc2cccs2)[nH]c(=O)[nH]1,GPR84,agonist,,,EC50,1.2 µM
O=C1C[C@@H](c2ccc(O[C@@H]3O[C@H](CO)[C@@H](O)[C@H](O)[C@H]3O)cc2)Oc2cc(O)ccc21,ESR2,"array formation, agonist",GFP-ERβ PRL-HeLa,1 h,EC50,0.845 µM
CN1CCN(c2nc(NCc3ccccc3)c3ccccc3n2)CC1,VCP,"enzyme activity, inhibitor",,,IC50,53 ± 18 µM
COc1cc(Nc2ncc3c(n2)-c2ccc(Cl)cc2C(c2c(F)cccc2OC)=NC3)ccc1C(=O)NCCOCCOCCNC(=O)COc1cccc2c1C(=O)N(C1CCC(=O)NC1=O)C2=O (centres unmarked),"Aurora kinase B, with INCENP (AURKB, Homo sapiens, UniProt Q96GD4)","binding, kinobead competition",MV4-11 cell lysate,,EC50,2.92 µM
O=C(O)CCc1ccno1,BRAP ZnF-UBD domain,,,,Kd,> 1000 µM
CCCCCCCCCCNc1cc(=O)n(C)c(=O)[nH]1,GPR84,"cAMP level, agonist",human cells,,EC50,1.88 ± 0.68 µM
O=C(O)CCOc1ccccc1,BRAP ZnF-UBD domain,,,,Kd,> 1000 µM
CCCCC1=NC2(CCCC2)C(=O)N1Cc1ccc(-c2ccccc2-c2nnn[nH]2)cc1,Nedd8-cullin1 interaction,"neddylation, AlphaScreen",,100 µM,inhibition,11.4%
Nc1nc2ccccc2n1-c1nccc(NCc2ccccc2)n1,VCP,"enzyme activity, inhibitor",,,IC50,2.8 ± 0.6 µM
O=c1cc(NCCCCCCCO)[nH]c(=O)[nH]1,GPR84,cAMP,,,EC50,2 µM
NS(=O)(=O)c1ccc(NCC(=O)O)cc1,BRAP ZnF-UBD domain,,,,Kd,> 1000 µM
COc1c(O)cc(O)c2c(=O)cc(-c3ccccc3)oc12,ESR2,"array formation, agonist",GFP-ERβ PRL-HeLa,1 h,EC50,2.43 µM
N#C[C@@]12C[C@@H]1[C@@H](n1cnc3c(NC4CCCC4)nc(I)nc31)[C@H](O)[C@@H]2O,"5-hydroxytryptamine receptor 2C (HTR2C, Homo sapiens, UniProt P28335)","antagonist, Gq dissociation BRET",,human receptor,Kb,0.615 µM
O=c1cc(-c2ccccc2)oc2ccc(O)cc12,ESR2,"array formation, agonist",GFP-ERβ PRL-HeLa,1 h,EC50,2.63 µM
Cc1ccc(CCNc2cc(=O)[nH]c(=O)[nH]2)cc1,GPR84,agonist,,,EC50,0.324 µM
C=C1CN(S(=O)(=O)c2ccc(OC)cc2)CCCN(CC2CCCCC2)CCCN(S(=O)(=O)c2ccc(N(C)C)cc2)C1,"Sortilin (Homo sapiens, UniProt Q99523)","protein expression, flow cytometry",HEK-293T expressing sortilin-GFP,24 h,DC50,0.1 ± 0.06 µM
O=C(O)CCN1C(=O)c2ccccc2S1(=O)=O,BRAP ZnF-UBD domain,,,,Kd,> 1000 µM
Cc1cccc(-c2nc(NCc3ccc(F)cc3)c3ccccc3n2)c1,VCP,"enzyme activity, inhibitor",,,IC50,15 ± 2 µM
O=c1cc(-c2ccccc2)oc2cc(O)ccc12,ESR2,"array formation, agonist",GFP-ERβ PRL-HeLa,1 h,EC50,0.185 µM
Cc1ccc(-c2nc(NC(C)c3ccccc3)c3ccccc3n2)cc1 (centres unmarked),VCP,"enzyme activity, inhibitor",,,IC50,7 ± 4 µM
O=c1[nH]c(NCCc2ccc(Br)cc2)c(Br)c(=O)[nH]1,GPR84,"cAMP level, agonist",human cells,,EC50,0.368 ± 0.016 µM
Fc1ccc(CNc2nc(-c3ccccc3)nc3ccccc23)cc1,VCP,"enzyme activity, inhibitor",,,IC50,11 ± 3 µM
NC(=O)c1cc(-n2c(CCC(=O)O)nc3ccccc32)cs1,BRAP ZnF-UBD domain,,,,Kd,> 1000 µM
CCN(CC)C(=O)Nc1ccc(OCC(O)CNC(C)(C)C)c(C(C)=O)c1 (centres unmarked),Nedd8-cullin1 interaction,"neddylation, AlphaScreen",,100 µM,inhibition,-12.7%
COc1cc2oc(-c3ccc(O)cc3)cc(=O)c2c(O)c1[C@@H]1O[C@H](CO)[C@@H](O)[C@H](O)[C@H]1O[C@@H]1O[C@H](CO)[C@@H](O)[C@H](O)[C@H]1O,ESR2,"array formation, agonist",GFP-ERβ PRL-HeLa,1 h,EC50,3.22 µM
COc1cccc2c(NCc3ccccc3)nc(N3CCN(C)c4ccccc43)nc12,VCP,"enzyme activity, inhibitor",,,IC50,3.1 ± 0.5 µM
O=C(O)CCC(=O)Nc1ccccc1,BRAP ZnF-UBD domain,,,,Kd,> 1000 µM

# Excerpt of the above:
SMILES,target,assay,system,setting,endpoint,value
O=C(O)CCc1ccccc1OCc1ccccn1,BRAP ZnF-UBD domain,,,,Kd,483 µM
O=c1c(O)c(-c2cc(O)c(O)c(O)c2)oc2cc(O)cc(O)c12,ESR2,"array formation, agonist",GFP-ERβ PRL-HeLa,1 h,EC50,0.194 µM
O=c1cc(NCCc2cccs2)[nH]c(=O)[nH]1,GPR84,agonist,,,EC50,1.2 µM
O=C1C[C@@H](c2ccc(O[C@@H]3O[C@H](CO)[C@@H](O)[C@H](O)[C@H]3O)cc2)Oc2cc(O)ccc21,ESR2,"array formation, agonist",GFP-ERβ PRL-HeLa,1 h,EC50,0.845 µM
CN1CCN(c2nc(NCc3ccccc3)c3ccccc3n2)CC1,VCP,"enzyme activity, inhibitor",,,IC50,53 ± 18 µM
